Earlier results as cited in several papers.
Compare with care: the assays were run in different laboratories. Numbers after ± are the reported error.
UniProt Q99558, sequence (whole entry, looked up): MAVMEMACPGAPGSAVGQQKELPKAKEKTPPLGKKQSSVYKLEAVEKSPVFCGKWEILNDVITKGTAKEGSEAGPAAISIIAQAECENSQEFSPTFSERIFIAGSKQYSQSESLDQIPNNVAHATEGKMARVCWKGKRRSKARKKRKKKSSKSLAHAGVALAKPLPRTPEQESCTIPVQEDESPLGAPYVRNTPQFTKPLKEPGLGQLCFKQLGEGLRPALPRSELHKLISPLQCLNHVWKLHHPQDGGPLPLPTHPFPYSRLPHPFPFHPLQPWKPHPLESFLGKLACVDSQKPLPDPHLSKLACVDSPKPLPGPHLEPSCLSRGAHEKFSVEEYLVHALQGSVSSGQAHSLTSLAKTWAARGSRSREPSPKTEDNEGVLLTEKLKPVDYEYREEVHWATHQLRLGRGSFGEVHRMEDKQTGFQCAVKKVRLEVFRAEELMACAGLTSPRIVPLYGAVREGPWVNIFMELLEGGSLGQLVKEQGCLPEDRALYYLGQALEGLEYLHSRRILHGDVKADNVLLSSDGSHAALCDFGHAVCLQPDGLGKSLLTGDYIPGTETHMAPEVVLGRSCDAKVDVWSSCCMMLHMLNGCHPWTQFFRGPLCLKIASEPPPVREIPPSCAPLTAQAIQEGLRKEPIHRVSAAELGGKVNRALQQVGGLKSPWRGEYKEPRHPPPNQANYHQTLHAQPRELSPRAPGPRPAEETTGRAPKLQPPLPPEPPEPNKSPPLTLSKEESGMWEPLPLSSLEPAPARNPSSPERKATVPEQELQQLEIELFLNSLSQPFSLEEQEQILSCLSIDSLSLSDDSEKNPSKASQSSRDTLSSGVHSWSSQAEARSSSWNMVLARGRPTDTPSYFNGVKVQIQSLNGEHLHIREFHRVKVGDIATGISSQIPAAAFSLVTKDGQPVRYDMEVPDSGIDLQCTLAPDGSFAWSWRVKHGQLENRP

N#CCNC(=O)c1ccc(-c2ccnc(Nc3ccc(N4CCOCC4=O)cc3)n2)cc1  inhibition (CYP1A2; enzyme activity, inhibitor; concentration not given): no inhibition
C=CC(=O)Nc1cc(Nc2nccc(-c3cn(C)c4ccccc34)n2)c(OC)cc1N(C)CCN(C)C  metabolism contribution (CYP1A2): 12%
FC(F)(F)C(F)(F)C(F)(F)C(F)(F)C(F)(F)C(F)(F)C(F)(F)C(F)(F)C(F)(F)C(F)(F)F  activity (CYP1A2; concentration not given): inactive
CNCc1cn(S(=O)(=O)c2cccc(F)c2)c(-c2ccc(F)cc2F)c1OC  IC50 (CYP1A2; enzyme activity): 51.3 µM
CO[C@@H](C)Cn1c(=O)n(C)c2cnc3ccc(-c4cncc(C(C)(C)O)c4)cc3c21  fraction of hepatic clearance (CYP1A2; substrate depletion): 18%
C=C[C@@H]1C[C@]1(NC(=O)[C@@H]1C[C@@H]2CN1C(=O)[C@H](C(C)(C)C)NC(=O)O[C@@H]1C[C@H]1CCCCCc1nc3ccc(OC)cc3nc1O2)C(=O)NS(=O)(=O)C1CC1  IC50 (CYP1A2; inhibitor; human liver microsomes): > 100 µM
CC1(C)S[C@@H]2[C@H](NC(=O)[C@H](N)c3ccccc3)C(=O)N2[C@H]1C(=O)O  MIC (Acinetobacter baumannii; clinical isolate RKI-No_271/16): > 16 µg/mL
COc1cc2c(Oc3ccc4[nH]c(C)cc4c3F)ccnc2cc1OCC1(N)CC1  IC50 (CYP1A2; reversible inhibitor): > 100 µM
FC(F)OC(Cl)C(F)(F)F (stereo not shown)  IC50 (CYP1A2; inhibitor; Tox21 screening): 47.7 ± 13.4 µM
N#CCNC(=O)c1ccc(-c2ccnc(Nc3ccc(N4CCOCC4)cc3)n2)cc1  contribution to metabolism (CYP1A2; human hepatocytes): 9%
Nc1cc(C(F)(F)F)c(-c2nc(N3CCOCC3)nc(N3CCOCC3)n2)cn1  remaining activity (MAP3K14 (Homo sapiens, UniProt Q99558); enzyme activity; 10 µM; reference: untreated): 100%
O=C1Nc2ccc(Cl)cc2[C@@](C#CC2CC2)(C(F)(F)F)O1  CLint (CYP1A2): 0.03 µL/min/mg protein
CC(C)Nc1nc2cc(Cl)c(Cl)cc2n1[C@H]1O[C@@H](CO)[C@H](O)[C@@H]1O  metabolism contribution (CYP1A2): 15 to 30%
C=C(C)C(=O)OCCC(F)(F)C(F)(F)C(F)(F)C(F)(F)C(F)(F)C(F)(F)F  activity (CYP1A2; concentration not given): inactive
CNC(C)C1CCC(N)C(OC2C(N)CC(N)C(OC3OCC(C)(O)C(NC)C3O)C2O)O1 (stereo not shown)  MIC (Enterobacter cloacae; clinical isolate RKI-No_33/16): ≤ 0.5 µg/mL
NS(=O)(=O)C(F)(F)C(F)(F)C(F)(F)C(F)(F)C(F)(F)C(F)(F)C(F)(F)C(F)(F)F  activity (CYP1A2; concentration not given): inactive
CC(=O)Nc1ccc(O)cc1  Km (CYP1A2; substrate): 220 µM
CN(C)C(=O)c1cc2cnc(Nc3ccc(N4CCNCC4)cn3)nc2n1C1CCCC1  decrease in Cmax (CYP1A2; item: caffeine; human; 400 mg once daily, 8 days; reference: caffeine alone): ~10%
Fc1c(F)c(F)c(Br)c(F)c1F  IC50 (CYP1A2; inhibitor): 46.2 ± 14.8 µM

Repeated from above:
CC(=O)Nc1ccc(O)cc1  Km (CYP1A2; substrate): 220 µM
FC(F)OC(Cl)C(F)(F)F (stereo not shown)  IC50 (CYP1A2; inhibitor; Tox21 screening): 47.7 ± 13.4 µM
